Experimental data from different studies.
Compare with care: the assays were run in different laboratories. Several values in a cell are separate wells, animals, samples, runs or records. ≈ marks a conversion by molar mass, not a printed value.
UCHL1: Ubiquitin carboxyl-terminal hydrolase isozyme L1 (UCHL1, Homo sapiens, UniProt P09936)
Sequence of UniProt P09936 (whole entry, looked up): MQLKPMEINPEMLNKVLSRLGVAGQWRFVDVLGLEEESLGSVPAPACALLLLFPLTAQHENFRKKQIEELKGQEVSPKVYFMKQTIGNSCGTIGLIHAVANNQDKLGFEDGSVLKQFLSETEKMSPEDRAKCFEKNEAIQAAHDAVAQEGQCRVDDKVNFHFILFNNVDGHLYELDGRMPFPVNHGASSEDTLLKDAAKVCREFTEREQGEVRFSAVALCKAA

Structure (SMILES)	target or system	test	system	conditions	how to read	measurement	result
Nc1nc(-c2ccccc2)nc2[nH]nc(Nc3ccc(C(F)(F)F)cc3)c12	coxsackievirus B3		31-1-93, NMRI mice, CVB3 chronic myocarditis	oral, 100 mg/kg twice daily, day 9, dosed days 1 to 7, score scale 0 to 7	direction not given	clinical score	0.33
COC(=O)C1=C(C)NC(C)=C(C(=O)OC(C)(C)CN(C)CCC(c2ccccc2)c2ccccc2)C1c1cccc([N+](=O)[O-])c1 (stereo not shown)	Toxoplasma gondii	parasite growth, luciferase reporter	HFF, tachyzoite	72 h		EC90	33.1 µM
OC(C#Cc1ccc(F)c(F)c1)c1ccccc1 (stereo not shown)	Pseudomonas aeruginosa	static biofilm	PA14	10 µM, 24 h	baseline: DMSO	biofilm formation	78%
OC[C@H]1O[C@@H](O[C@@H]2[C@@H](O)[C@H](O[C@@H]3[C@@H](O)[C@H](O[C@@H]4[C@@H](O)[C@H](O[C@H]5[C@H](O)[C@@H](CO)OC(O)[C@@H]5O)O[C@H](CO)[C@H]4O)O[C@H](CO)[C@H]3O)O[C@H](CO)[C@H]2O)[C@H](O)[C@@H](O)[C@@H]1O (stereo partly shown)	Bacteroides uniformis	binding, ITC		pH 7.0, 25 °C, distal domain		ΔH	-46.9 kcal/mol
COc1cc2nc(N(CCCN(C)C)C(=O)c3ccc(S(=O)(=O)N4CCc5ccccc54)cc3)sc2cc1OC	Trypanosoma cruzi	reporter translation, Renilla luciferase mRNA translation	cell-free extract	40 µM	baseline: DMSO	inhibition	17%
OC[C@H]1O[C@@H](O[C@@H]2[C@@H](O)[C@H](O[C@@H]3[C@@H](O)[C@H](O[C@H]4[C@H](O)[C@@H](CO)OC(O)[C@@H]4O)O[C@H](CO)[C@H]3O)O[C@H](CO)[C@H]2O)[C@H](O)[C@@H](O)[C@@H]1O (stereo partly shown)	Bacteroides uniformis	binding, ITC		pH 7.0, 25 °C, middle domain		ΔH	-25.5 kcal/mol
CC[C@H]1CN2CCc3cc(OC)c(OC)cc3[C@@H]2C[C@@H]1C[C@H]1NCCc2cc(OC)c(OC)cc21	Toxoplasma gondii	bradyzoite growth		pH 8.2, alkaline-induced bradyzoites		EC50	2.5 µM
OC(Cn1cncn1)(Cn1cncn1)c1ccc(F)cc1F	Cryptococcus neoformans		H99, RPMI 1640	24 h, 35 °C		MIC	25 µM (≈ 7.66 µg/mL)
O=C(N/N=C/c1ccc(-c2ccccc2Cl)o1)c1ccccc1	Trypanosoma cruzi	reporter translation, Renilla luciferase mRNA translation	cell-free extract	40 µM	baseline: DMSO	inhibition	-1.4%
Clc1ccc(C(c2ccc(Cl)cc2)n2cc[n+](CC(OCc3ccc(Cl)cc3Cl)c3ccc(Cl)cc3Cl)c2)cc1 (stereo not shown)	Toxoplasma gondii	parasite growth	HFF, bradyzoite, alkaline-induced			EC90	8.79 µM
Cc1ccc(C(=O)C#Cc2ccc(F)c(F)c2)cc1	Pseudomonas aeruginosa	static biofilm	PA14	10 µM, 24 h, static	baseline: DMSO	biofilm formation	53%
O=C(/C=C/c1ccc(O)c(O)c1)OCCc1ccccc1	Toxoplasma gondii	parasite growth	HFF, bradyzoite, glutamine-induced			EC90	9.13 µM
COc1cc(C#CC(=O)CC(C)C)ccc1O	Pseudomonas aeruginosa	static biofilm	PA14	10 µM, 24 h	baseline: DMSO	biofilm formation	68%
Oc1ncnc2[nH]ncc12	Toxoplasma gondii	parasite growth	HFF, bradyzoite, glutamine-induced			EC90	30 µM
C=CCNC(=O)C(C#N)=Cc1cccc(C(F)(F)F)c1	UCHL1	covalent, intact protein LC-MS		12.5 µM		labelling	17.5%
OC[C@H]1O[C@@H](O[C@@H]2[C@@H](O)[C@H](O[C@@H]3[C@@H](O)[C@H](O[C@@H]4[C@@H](O)[C@H](O[C@@H]5[C@@H](O)[C@H](O[C@H]6[C@H](O)[C@@H](CO)OC(O)[C@@H]6O)O[C@H](CO)[C@H]5O)O[C@H](CO)[C@H]4O)O[C@H](CO)[C@H]3O)O[C@H](CO)[C@H]2O)[C@H](O)[C@@H](O)[C@@H]1O (stereo partly shown)	Bacteroides uniformis	binding, ITC		pH 7.0, 25 °C, distal domain		ΔH	-45.5 kcal/mol
COc1cc(C#CC(=O)c2ccccc2Cl)ccc1O	Pseudomonas aeruginosa	static biofilm	PA14	10 µM, 24 h	baseline: DMSO	biofilm formation	76%
C#CCOc1cc(C2CC(=O)Nc3ccsc32)ccc1OC (stereo not shown)	UCHL1	covalent, intact protein LC-MS		12.5 µM		labelling	17.4%
COc1cc(C#CC(=O)c2cccc(C)c2)ccc1O	Pseudomonas aeruginosa	static biofilm	PA14	10 µM, 24 h	baseline: DMSO	biofilm formation	77%
CC(C)n1ncc2c(C(=O)NCC3(C)CNC3)cc(C3CC3)nc21	Enterovirus D68	cytopathic effect	RD, US/MO/14-18947	1500 nM		cell protection	105% and 106% and 107%
C=C1C(=O)O[C@H]2[C@H]1CC/C(C)=C/CC[C@@]1(C)O[C@@H]21	Toxoplasma gondii	parasite growth	HFF, bradyzoite, alkaline-induced			EC90	0.325 µM
COc1cc(C#CC(=O)c2ccc(Cl)cc2)ccc1O	Pseudomonas aeruginosa	static biofilm	PA14	10 µM, 24 h, static	baseline: DMSO	biofilm formation	65%

A few entries again:
Structure (SMILES)	target or system	test	system	conditions	how to read	measurement	result
COC(=O)C1=C(C)NC(C)=C(C(=O)OC(C)(C)CN(C)CCC(c2ccccc2)c2ccccc2)C1c1cccc([N+](=O)[O-])c1 (stereo not shown)	Toxoplasma gondii	parasite growth, luciferase reporter	HFF, tachyzoite	72 h		EC90	33.1 µM
